Assay results collected from several papers.
Every numbered part comes from another study and shows a few of its results, in no order.
Chain of UniProt O95819 (whole entry, looked up): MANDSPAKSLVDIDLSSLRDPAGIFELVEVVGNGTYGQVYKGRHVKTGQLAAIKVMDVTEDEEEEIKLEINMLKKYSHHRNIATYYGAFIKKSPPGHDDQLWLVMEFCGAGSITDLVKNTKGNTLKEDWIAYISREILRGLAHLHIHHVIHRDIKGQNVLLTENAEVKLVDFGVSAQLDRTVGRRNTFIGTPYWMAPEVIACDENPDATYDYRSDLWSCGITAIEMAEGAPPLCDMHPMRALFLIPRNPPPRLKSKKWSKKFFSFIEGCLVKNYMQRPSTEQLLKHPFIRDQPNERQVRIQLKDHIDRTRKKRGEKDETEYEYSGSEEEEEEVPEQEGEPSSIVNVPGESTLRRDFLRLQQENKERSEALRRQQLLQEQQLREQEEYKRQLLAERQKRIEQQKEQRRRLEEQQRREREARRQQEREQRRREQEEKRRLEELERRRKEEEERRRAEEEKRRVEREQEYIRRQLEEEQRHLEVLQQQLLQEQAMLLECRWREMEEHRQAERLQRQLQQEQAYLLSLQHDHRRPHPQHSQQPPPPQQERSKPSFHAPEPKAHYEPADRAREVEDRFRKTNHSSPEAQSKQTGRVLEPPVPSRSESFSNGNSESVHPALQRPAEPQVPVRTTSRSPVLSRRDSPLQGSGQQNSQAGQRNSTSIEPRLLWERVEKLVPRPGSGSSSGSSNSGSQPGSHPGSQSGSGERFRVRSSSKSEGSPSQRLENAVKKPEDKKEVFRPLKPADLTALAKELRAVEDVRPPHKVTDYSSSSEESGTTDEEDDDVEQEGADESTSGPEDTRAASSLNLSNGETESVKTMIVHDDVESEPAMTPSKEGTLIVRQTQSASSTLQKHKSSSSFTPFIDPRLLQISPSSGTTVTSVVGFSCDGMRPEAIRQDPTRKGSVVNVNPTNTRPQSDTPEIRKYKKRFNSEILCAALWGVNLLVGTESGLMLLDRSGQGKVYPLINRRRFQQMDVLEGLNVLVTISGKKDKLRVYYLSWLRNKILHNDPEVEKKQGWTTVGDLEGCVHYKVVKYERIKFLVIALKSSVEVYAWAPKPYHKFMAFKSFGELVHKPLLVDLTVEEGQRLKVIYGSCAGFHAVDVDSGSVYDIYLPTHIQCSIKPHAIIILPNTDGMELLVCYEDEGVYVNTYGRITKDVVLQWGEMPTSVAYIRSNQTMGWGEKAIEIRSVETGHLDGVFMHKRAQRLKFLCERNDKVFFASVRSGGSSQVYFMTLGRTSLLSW
Chain of UniProt P46734 (whole entry, looked up): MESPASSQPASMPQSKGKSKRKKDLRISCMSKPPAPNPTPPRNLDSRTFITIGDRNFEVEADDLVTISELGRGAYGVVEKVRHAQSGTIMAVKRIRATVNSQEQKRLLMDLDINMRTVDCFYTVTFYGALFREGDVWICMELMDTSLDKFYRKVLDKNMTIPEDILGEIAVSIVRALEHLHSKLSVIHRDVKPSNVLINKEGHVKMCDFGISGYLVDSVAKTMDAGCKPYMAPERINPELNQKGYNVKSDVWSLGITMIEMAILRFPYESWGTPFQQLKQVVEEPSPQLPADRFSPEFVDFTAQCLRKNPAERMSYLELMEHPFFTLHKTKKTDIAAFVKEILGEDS
Chain of UniProt Q04771 (whole entry, looked up): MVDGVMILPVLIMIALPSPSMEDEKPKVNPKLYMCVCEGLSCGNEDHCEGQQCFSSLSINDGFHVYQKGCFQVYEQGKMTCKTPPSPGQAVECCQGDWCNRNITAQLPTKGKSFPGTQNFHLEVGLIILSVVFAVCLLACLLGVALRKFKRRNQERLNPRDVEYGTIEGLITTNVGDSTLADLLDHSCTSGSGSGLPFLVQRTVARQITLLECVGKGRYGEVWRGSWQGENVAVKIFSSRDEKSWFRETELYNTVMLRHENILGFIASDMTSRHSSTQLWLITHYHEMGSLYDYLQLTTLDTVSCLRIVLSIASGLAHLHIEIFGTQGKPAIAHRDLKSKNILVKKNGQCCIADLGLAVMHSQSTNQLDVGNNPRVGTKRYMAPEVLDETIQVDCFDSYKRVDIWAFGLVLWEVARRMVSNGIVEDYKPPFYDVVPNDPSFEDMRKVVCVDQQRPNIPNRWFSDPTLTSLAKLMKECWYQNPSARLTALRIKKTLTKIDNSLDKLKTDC
Chain of UniProt P27448 (whole entry, looked up): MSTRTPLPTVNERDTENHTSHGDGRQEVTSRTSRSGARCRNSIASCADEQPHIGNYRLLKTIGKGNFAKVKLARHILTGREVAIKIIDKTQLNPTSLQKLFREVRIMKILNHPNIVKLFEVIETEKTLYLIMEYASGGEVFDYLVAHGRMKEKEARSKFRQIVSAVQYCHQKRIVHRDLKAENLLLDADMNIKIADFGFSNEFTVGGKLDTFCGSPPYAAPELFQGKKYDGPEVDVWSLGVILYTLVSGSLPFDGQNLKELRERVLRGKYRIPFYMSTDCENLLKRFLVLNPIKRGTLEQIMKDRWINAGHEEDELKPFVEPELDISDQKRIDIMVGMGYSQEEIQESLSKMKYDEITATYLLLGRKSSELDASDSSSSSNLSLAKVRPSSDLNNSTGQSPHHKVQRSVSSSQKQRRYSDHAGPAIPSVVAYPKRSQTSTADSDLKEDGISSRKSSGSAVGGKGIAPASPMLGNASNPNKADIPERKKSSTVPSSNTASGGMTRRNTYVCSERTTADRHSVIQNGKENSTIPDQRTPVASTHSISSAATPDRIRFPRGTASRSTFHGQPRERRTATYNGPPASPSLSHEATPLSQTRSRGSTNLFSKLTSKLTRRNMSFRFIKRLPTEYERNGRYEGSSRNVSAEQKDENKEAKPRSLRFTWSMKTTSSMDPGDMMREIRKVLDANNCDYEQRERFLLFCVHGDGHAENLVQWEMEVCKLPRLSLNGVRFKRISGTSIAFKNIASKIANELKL
Chain of UniProt Q9UIK4 (whole entry, looked up): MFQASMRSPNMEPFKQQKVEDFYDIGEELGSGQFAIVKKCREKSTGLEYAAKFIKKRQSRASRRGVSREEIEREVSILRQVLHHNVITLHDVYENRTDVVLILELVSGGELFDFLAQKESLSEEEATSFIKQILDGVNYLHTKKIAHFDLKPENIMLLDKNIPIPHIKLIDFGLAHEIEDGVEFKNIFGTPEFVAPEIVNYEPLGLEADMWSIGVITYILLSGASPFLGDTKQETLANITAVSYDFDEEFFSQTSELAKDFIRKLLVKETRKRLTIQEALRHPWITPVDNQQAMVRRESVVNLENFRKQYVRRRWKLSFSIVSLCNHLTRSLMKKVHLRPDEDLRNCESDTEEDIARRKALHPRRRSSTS
Chain of UniProt Q13163 (whole entry, looked up): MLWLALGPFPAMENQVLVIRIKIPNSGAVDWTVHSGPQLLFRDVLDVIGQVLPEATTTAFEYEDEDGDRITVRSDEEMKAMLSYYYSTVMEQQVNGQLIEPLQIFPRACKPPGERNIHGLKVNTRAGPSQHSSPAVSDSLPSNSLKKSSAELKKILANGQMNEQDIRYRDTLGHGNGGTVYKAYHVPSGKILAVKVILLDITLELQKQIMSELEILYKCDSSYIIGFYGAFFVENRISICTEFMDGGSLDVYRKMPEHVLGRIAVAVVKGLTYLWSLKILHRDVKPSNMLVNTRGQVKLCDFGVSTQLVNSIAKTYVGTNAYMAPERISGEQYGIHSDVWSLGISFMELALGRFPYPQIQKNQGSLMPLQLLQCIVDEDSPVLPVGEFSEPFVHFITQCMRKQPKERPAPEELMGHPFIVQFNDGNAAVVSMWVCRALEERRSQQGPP

Study 1
Structure (SMILES): Cc1ccc(NC(=O)c2ccnc(C(F)(F)F)c2)cc1-c1cc(OCCO)nc(N2CCOCC2)c1
Read-out: binding
Concentration: 1 µM
target	assay	remaining binding [%]
Rho-associated protein kinase 2 (ROCK2, Homo sapiens, UniProt O75116)	–	96
Myosin light chain kinase, smooth muscle (MYLK, Homo sapiens, UniProt Q15746)	–	100
Dual specificity mitogen-activated protein kinase kinase 3 (MAP2K3, Homo sapiens, UniProt P46734)	–	77
Serine/threonine-protein kinase PRP4 homolog (PRPF4B, Homo sapiens, UniProt Q13523)	–	100
Mitogen-activated protein kinase kinase kinase 20 (MAP3K20, Homo sapiens, UniProt Q9NYL2)	competition with immobilised ligand	91
Death-associated protein kinase 2 (DAPK2, Homo sapiens, UniProt Q9UIK4)	–	100

Study 2
SMILES: O=C(Nc1cccnn1)N1CC(C/C=C/c2cncc(Oc3ccc(C(F)(F)F)cn3)n2)C1
Read-out: cell-free assay
Technique: competition with immobilised ligand
Concentration: 1 µM
target	remaining binding
Activin receptor type-1 (ACVR1, Homo sapiens, UniProt Q04771)	92%
Cyclin-dependent kinase 3 (CDK3, Homo sapiens, UniProt Q00526)	100%
Dual specificity mitogen-activated protein kinase kinase 5 (MAP2K5, Homo sapiens, UniProt Q13163)	88%
MAP/microtubule affinity-regulating kinase 3 (MARK3, Homo sapiens, UniProt P27448)	100%
Serine/threonine-protein kinase pim-3 (PIM3, Homo sapiens, UniProt Q86V86)	100%
Tyrosine-protein kinase ABL1, phosphorylated (ABL1, Homo sapiens, UniProt P00519, F317L)	67%
Mitogen-activated protein kinase kinase kinase kinase 4 (MAP4K4, Homo sapiens, UniProt O95819)	100%
Serine/threonine-protein kinase WNK2 (WNK2, Homo sapiens, UniProt Q9Y3S1)	0%

Study 3
Cell line: HaCaT
Concentration: 100 µM
Time: 36 h
SMILES	viability [%]
COc1ccc(-c2coc3cc(O)ccc3c2=O)cc1	84.8
Cc1cc(-n2c(=O)[nH]c(=O)n(C)c2=O)ccc1Oc1ccc(SC(F)(F)F)cc1	47.6
CCCNS(=O)(=O)Nc1ncnc(OCCOc2ncc(Br)cn2)c1-c1ccc(Br)cc1	90.1
NC(=O)c1cc[n+](CC2=C(C(=O)O)N3C(=O)[C@@H](NC(=O)[C@@H](c4ccccc4)S(=O)(=O)[O-])[C@H]3SC2)cc1	98.7
O=C(O)c1cccnc1	108
CC(C)NCC(O)c1ccc(NS(C)(=O)=O)cc1 (stereo not drawn)	90.3
CC(=O)Oc1cc(C(F)(F)F)ccc1C(=O)O	90.1
O=C(O)c1cc(-c2ccc(F)cc2F)ccc1O	74.8
CN(C)CCC=C1c2ccccc2C=Cc2ccccc21	5.37

Study 4
Target: Serine/threonine-protein kinase Nek4 (NEK4, Homo sapiens, UniProt P51957)
Chain of UniProt P51957 (whole entry, looked up): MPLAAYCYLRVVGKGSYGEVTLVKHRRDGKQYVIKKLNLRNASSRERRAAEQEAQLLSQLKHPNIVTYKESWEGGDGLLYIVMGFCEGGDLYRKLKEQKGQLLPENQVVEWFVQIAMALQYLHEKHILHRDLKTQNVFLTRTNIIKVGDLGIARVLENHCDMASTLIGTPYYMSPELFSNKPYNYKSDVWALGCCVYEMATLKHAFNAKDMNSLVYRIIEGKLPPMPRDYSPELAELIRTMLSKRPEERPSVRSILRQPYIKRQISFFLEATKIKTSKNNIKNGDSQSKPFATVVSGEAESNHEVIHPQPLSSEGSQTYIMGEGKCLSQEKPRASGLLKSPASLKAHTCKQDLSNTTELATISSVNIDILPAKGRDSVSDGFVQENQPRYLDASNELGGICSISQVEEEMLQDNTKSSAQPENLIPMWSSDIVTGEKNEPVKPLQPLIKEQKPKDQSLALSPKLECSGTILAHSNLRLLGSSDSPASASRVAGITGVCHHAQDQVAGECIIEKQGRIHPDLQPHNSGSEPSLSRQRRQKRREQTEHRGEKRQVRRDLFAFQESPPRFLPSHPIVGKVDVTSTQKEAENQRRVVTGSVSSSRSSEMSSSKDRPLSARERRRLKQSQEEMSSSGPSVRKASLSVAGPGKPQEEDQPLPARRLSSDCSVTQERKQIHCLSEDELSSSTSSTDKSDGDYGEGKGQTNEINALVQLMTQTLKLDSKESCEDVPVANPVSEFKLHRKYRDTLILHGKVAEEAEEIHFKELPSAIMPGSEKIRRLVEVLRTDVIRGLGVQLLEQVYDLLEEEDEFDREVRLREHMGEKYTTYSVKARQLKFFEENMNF
Read-out: enzyme activity
Mode: inhibitor
Concentration: 0.5 µM
Reference: control
Structure (SMILES)	remaining activity [%]
Nc1ccc2ncnc(NCCc3ccc(Oc4ccccc4)cc3)c2c1	97.8
CO[C@H]1C[C@@H]2CC[C@@H](C)[C@@](O)(O2)C(=O)C(=O)N2CCCC[C@H]2C(=O)O[C@H]([C@H](C)C[C@@H]2CC[C@@H](O)[C@H](OC)C2)CC(=O)[C@H](C)/C=C(\C)[C@@H](O)[C@@H](OC)C(=O)[C@H](C)C[C@H](C)/C=C/C=C/C=C/1C	97.2
Cn1c2ccccc2c2c3c(c4c5ccccc5n(CCC#N)c4c21)CNC3=O	49.1
COc1ccc(C(=O)Nc2sc3c(c2C(N)=O)CCCC3)cc1OC	104
CC(C)[C@H](CO)Nc1nc(Nc2cc(N)cc(Cl)c2)c2ncn(C(C)C)c2n1	80.2
Cc1cccc(-c2[nH]c(C(C)(C)C)nc2-c2ccc3c(c2)OCO3)n1	94.9
COc1cc2ncnc(Nc3ccc(Oc4ccccc4)cc3)c2cc1OC	96.8
NCCNc1ncc(C(N)=O)c(Nc2cccc(C(F)(F)F)c2)n1	97.5
Oc1ccc(-c2nc(-c3ccncc3)c(-c3ccc(F)cc3)[nH]2)cc1	94
N#CC(C#N)=C(N)/C(C#N)=C/c1ccc(O)cc1	93.3
COc1ccc(OC)c2c(=S)c3ccccc3[nH]c12	87.7
Nc1ncnc2n[nH]c(Nc3ccc(F)cc3)c12	92.8
O=c1c2ccccc2[nH]c(=S)n1CCN1CCC(=C(c2ccc(F)cc2)c2ccc(F)cc2)CC1	99.1
Nc1[nH]nc2nc3ccccc3nc12	97.8
O=S(=O)(c1cccc2cnccc12)N1CCCNCC1	90.7
O=C(O)c1ccc2c3c1cccc3c(=O)n1c3ccccc3nc21	60.4

Some of these lines once more (study 3):
SMILES	viability [%]
O=C(O)c1cccnc1	108
CC(C)NCC(O)c1ccc(NS(C)(=O)=O)cc1 (stereo not drawn)	90.3
CC(=O)Oc1cc(C(F)(F)F)ccc1C(=O)O	90.1
O=C(O)c1cc(-c2ccc(F)cc2F)ccc1O	74.8
